Measured values pooled from the literature.
Parts stem from different laboratories: compare values within a part only.
UniProt Q16816, sequence (whole entry, looked up): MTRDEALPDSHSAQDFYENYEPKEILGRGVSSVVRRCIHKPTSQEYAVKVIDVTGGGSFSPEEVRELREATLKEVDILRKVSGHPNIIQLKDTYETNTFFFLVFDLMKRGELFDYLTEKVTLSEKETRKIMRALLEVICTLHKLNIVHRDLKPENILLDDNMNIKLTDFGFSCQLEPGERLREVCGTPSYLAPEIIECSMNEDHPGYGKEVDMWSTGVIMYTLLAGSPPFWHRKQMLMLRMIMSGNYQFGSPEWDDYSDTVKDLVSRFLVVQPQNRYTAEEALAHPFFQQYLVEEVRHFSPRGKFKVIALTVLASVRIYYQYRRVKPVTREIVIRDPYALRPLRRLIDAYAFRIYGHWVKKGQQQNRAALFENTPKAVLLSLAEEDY
UniProt P54764, sequence (whole entry, looked up): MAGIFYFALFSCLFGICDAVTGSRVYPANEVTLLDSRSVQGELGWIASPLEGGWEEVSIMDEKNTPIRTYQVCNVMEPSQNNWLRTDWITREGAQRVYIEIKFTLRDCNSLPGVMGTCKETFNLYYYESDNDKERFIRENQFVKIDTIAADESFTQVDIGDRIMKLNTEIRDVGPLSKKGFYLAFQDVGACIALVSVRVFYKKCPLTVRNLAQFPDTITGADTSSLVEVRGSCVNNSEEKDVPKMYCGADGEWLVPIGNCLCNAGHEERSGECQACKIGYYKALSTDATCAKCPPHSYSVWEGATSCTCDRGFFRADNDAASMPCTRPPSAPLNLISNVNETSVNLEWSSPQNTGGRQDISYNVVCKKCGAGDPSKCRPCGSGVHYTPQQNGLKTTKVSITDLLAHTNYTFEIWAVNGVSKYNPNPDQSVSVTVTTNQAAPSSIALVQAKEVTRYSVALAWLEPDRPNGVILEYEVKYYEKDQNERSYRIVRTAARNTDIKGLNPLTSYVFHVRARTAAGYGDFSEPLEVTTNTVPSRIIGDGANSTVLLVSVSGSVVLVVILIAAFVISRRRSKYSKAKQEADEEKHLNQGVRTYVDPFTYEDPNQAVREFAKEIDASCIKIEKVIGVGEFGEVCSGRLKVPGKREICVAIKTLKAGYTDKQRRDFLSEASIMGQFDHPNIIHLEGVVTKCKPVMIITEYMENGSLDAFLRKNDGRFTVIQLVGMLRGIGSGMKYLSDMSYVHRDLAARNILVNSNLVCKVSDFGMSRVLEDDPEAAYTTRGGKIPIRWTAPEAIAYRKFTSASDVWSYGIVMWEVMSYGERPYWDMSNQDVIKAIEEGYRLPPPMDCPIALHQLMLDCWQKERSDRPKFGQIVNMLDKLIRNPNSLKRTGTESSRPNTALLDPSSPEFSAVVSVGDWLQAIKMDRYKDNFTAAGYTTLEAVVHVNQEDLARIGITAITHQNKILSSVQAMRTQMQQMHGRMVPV
UniProt Q16644, sequence (whole entry, looked up): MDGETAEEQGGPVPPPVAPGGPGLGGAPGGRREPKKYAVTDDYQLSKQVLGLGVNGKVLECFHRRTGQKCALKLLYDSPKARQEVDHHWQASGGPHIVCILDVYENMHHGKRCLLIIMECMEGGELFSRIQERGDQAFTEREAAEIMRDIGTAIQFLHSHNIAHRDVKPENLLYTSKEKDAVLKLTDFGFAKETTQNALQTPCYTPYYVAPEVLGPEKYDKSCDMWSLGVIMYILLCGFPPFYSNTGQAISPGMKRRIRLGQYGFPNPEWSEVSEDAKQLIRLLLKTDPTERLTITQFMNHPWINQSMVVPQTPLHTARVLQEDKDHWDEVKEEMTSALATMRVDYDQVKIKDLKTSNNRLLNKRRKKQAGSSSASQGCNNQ
UniProt P54760, sequence (whole entry, looked up): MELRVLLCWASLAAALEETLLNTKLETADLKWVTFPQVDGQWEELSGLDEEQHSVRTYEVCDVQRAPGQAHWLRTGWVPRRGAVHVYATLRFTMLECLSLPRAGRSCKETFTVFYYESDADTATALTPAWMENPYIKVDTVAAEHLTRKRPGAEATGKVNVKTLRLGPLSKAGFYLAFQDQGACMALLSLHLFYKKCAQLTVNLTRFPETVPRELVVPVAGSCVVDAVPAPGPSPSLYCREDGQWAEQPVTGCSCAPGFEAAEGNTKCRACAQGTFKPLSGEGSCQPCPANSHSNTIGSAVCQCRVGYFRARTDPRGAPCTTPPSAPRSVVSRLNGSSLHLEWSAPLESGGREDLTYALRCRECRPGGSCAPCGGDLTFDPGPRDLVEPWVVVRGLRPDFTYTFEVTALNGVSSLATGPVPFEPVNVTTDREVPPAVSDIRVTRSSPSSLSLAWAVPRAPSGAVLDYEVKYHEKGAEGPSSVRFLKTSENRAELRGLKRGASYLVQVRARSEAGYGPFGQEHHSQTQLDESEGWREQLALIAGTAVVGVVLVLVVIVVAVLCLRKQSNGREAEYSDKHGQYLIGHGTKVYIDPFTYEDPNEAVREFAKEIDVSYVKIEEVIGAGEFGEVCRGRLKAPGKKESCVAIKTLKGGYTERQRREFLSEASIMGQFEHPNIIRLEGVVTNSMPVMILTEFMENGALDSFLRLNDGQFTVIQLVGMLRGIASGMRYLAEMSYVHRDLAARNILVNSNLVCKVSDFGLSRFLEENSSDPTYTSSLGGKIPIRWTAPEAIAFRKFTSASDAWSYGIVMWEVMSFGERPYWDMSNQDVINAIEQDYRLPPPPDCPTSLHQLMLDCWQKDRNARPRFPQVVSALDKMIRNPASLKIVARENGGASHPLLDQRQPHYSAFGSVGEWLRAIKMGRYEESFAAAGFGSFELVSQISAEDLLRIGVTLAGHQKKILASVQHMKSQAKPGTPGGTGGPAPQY
UniProt O15530, sequence (whole entry, looked up): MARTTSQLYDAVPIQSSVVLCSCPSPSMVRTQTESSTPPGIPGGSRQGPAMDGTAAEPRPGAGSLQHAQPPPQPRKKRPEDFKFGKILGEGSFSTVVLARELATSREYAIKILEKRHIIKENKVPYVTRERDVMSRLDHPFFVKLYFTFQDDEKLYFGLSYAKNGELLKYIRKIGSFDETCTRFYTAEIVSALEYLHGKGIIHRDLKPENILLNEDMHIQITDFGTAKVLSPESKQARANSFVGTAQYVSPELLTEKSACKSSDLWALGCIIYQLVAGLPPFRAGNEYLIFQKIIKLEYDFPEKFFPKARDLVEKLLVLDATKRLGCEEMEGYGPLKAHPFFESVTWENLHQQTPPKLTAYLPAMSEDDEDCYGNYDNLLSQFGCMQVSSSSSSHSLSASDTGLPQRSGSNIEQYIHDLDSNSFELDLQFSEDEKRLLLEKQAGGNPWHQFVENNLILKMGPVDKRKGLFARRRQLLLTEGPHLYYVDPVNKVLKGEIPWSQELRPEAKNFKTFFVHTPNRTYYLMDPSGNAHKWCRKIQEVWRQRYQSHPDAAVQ
UniProt Q00534, sequence (whole entry, looked up): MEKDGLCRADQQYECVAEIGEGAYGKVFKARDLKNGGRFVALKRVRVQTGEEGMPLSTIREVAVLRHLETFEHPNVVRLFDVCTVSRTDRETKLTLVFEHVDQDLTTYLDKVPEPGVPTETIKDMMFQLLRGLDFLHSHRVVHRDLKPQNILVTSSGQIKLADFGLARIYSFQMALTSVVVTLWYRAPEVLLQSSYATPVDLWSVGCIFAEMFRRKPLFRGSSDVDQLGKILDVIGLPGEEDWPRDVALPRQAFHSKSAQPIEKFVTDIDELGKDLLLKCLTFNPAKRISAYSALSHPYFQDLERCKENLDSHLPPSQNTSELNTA
UniProt P22612, sequence (whole entry, looked up): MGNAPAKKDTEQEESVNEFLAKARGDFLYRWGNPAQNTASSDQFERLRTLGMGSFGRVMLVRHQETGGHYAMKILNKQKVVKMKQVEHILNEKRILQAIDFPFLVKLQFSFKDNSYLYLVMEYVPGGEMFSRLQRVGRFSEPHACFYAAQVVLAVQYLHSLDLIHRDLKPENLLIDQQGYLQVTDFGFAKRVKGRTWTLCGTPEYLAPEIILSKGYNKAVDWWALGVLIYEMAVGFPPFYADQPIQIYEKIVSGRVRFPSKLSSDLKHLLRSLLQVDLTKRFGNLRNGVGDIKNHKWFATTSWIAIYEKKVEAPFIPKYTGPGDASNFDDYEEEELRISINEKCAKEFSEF
UniProt P53778, sequence (whole entry, looked up): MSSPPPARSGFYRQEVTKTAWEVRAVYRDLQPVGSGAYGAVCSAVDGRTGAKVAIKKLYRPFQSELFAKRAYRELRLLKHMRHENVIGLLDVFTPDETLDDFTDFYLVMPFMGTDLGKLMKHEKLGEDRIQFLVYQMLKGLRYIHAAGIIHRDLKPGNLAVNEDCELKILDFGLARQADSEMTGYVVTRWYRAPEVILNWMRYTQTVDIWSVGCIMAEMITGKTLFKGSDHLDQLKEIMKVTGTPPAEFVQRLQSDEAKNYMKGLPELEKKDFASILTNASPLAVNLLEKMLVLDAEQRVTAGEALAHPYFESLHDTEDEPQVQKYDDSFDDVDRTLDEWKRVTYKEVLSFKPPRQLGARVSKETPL
UniProt Q8IY84, sequence (whole entry, looked up): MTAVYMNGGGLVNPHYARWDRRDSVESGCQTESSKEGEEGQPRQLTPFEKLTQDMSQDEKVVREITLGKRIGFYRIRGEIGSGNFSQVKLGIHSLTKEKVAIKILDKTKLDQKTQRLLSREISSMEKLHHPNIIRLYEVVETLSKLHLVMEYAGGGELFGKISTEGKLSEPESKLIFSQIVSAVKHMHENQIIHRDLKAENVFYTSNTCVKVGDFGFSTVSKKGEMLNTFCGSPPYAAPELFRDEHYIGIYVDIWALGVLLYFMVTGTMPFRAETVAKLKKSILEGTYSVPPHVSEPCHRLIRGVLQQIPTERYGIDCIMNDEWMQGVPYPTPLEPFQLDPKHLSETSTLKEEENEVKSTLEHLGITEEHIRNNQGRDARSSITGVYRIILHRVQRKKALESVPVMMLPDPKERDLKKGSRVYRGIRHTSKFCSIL

Set 1
Compound: CC(C)S(=O)(=O)c1ccc2nccc(Nc3ccc4sc(C5CCCC5)nc4c3)c2c1
Read-out: enzyme activity
Mode: inhibitor
Concentration: 1 µM
target | activity vs control [%]
EPHA4 (Homo sapiens, UniProt P54764) | 114
MAP2K3 (Homo sapiens, UniProt P46734) | 99
PHKG2 (Homo sapiens, UniProt P15735) | 94.5
STK17B (Homo sapiens, UniProt O94768) | 99.5
TLK2 (Homo sapiens, UniProt Q86UE8) | 84.5
PIP4K2A (Homo sapiens, UniProt P48426) | 99
CSK (Homo sapiens, UniProt P41240) | 78
AKT2 (Homo sapiens, UniProt P31751) | 89
MAPK12 (Homo sapiens, UniProt P53778) | 104
MAPKAPK5 (Homo sapiens, UniProt Q8IW41) | 93
EEF2K (Homo sapiens, UniProt O00418) | 100
Cyclin-dependent kinase 6, with cyclin D3 (CDK6, Homo sapiens, UniProt Q00534) | 91.5
CDKL2 (Homo sapiens, UniProt Q92772) | 89
MAPKAPK3 (Homo sapiens, UniProt Q16644) | 92
TAOK3 (Homo sapiens, UniProt Q9H2K8) | 95

Set 2
Organism: Sarcocystis neurona
Read-out: parasite growth
Concentration: 10 µM
Time: 96 h
Relative to: untreated
Structure (SMILES) | log2 fold change
COc1ccc(/C=C/C(=O)Nc2ccccc2C(=O)O)cc1OC | -1.06
CC#C[C@]1(O)CC[C@H]2[C@@H]3CCC4=CC(=O)CCC4=C3[C@@H](c3ccc(N(C)C)cc3)C[C@@]21C | -0.13
Cc1[nH]cnc1CN1CCc2c(c3ccccc3n2C)C1=O | 0.38
O=C(CCCN1CC=C(n2c(=O)[nH]c3ccccc32)CC1)c1ccc(F)cc1 | -0.67
CC(=O)OCC(=O)[C@@]12OC(C)(C)O[C@@H]1C[C@H]1[C@@H]3C[C@H](F)C4=CC(=O)C=C[C@]4(C)[C@@]3(F)[C@@H](O)C[C@@]12C | 0.42
CC(C)(C)NC(=O)[C@H]1CC[C@H]2[C@@H]3CC[C@H]4NC(=O)C=C[C@]4(C)[C@H]3CC[C@]12C | -0.55
Cc1cn([C@H]2C[C@H](N=[N+]=[N-])[C@@H](CO)O2)c(=O)[nH]c1=O | 0.27
CCCc1nc(C(C)(C)O)c(C(=O)OCc2oc(=O)oc2C)n1Cc1ccc(-c2ccccc2-c2nnn[nH]2)cc1 | -0.0548
CO[C@@H]1[C@@H](O[C@@H]2O[C@H](C)[C@@H](O[C@H]3C[C@@](C)(O)[C@@H](OC(=O)CC(C)C)[C@H](C)O3)[C@H](N(C)C)[C@H]2O)[C@@H](CC=O)C[C@@H](C)[C@@H](O)/C=C/C=C/C[C@@H](C)OC(=O)C[C@H]1OC(C)=O | -0.73

Set 3
Compound: Nc1nccc(-c2c(-c3ccc(F)cc3)ncn2C2CCNCC2)n1
Read-out: enzyme activity
Mode: inhibitor
Concentration: 0.5 µM
Relative to: control
target | remaining activity
HIPK2 (Homo sapiens, UniProt Q9H2X6) | 106%
DYRK3 (Homo sapiens, UniProt O43781) | 96%
AXL (Homo sapiens, UniProt P30530) | 102%
EPHB4 (Homo sapiens, UniProt P54760) | 91.5%
PDPK1 (Homo sapiens, UniProt O15530) | 103%
EPHA4 (Homo sapiens, UniProt P54764) | 99.8%
SRMS (Homo sapiens, UniProt Q9H3Y6) | 97.5%
Cyclin-dependent kinase 6, with cyclin D3 (CDK6, Homo sapiens, UniProt Q00534) | 95.5%
TSSK2 (Homo sapiens, UniProt Q96PF2) | 100%
STK16 (Homo sapiens, UniProt O75716) | 108%
MAPKAPK3 (Homo sapiens, UniProt Q16644) | 99.4%
EPHB1 (Homo sapiens, UniProt P54762) | 99.9%
STK17A (Homo sapiens, UniProt Q9UEE5) | 97.8%
PHKG1 (Homo sapiens, UniProt Q16816) | 98.3%
BLK (Homo sapiens, UniProt P51451) | 102%
Cyclin-dependent kinase 4, with cyclin D3 (CDK4, Homo sapiens, UniProt P11802) | 104%
WNK3 (Homo sapiens, UniProt Q9BYP7) | 95.3%
ABL1 (Homo sapiens, UniProt P00519) | 101%
Cyclin-dependent kinase 1, with cyclin B (CDK1, Homo sapiens, UniProt P06493) | 96.8%
MAP4K4 (Homo sapiens, UniProt O95819) | 76.3%
CAMK2B (Homo sapiens, UniProt Q13554) | 97.7%
RPS6KA5 (Homo sapiens, UniProt O75582) | 97.9%
RPS6KA6 (Homo sapiens, UniProt Q9UK32) | 109%
PRKACG (Homo sapiens, UniProt P22612) | 105%
HIPK4 (Homo sapiens, UniProt Q8NE63) | 96.6%

Set 4
Structure (SMILES): CC(=O)N1CCC(c2ccc(C(=O)NC3=NCCN3)cc2C(F)(F)F)CC1
Read-out: cell-free assay
Technique: competition with immobilised ligand
Concentration: 1 µM
target | remaining binding
PRKD2 (Homo sapiens, UniProt Q9BZL6) | 100%
CLK3 (Homo sapiens, UniProt P49761) | 100%
CDK8 (Homo sapiens, UniProt P49336) | 100%
NUAK2 (Homo sapiens, UniProt Q9H093) | 90%
Ribosomal protein S6 kinase alpha-1, C-terminal kinase domain (RPS6KA1, Homo sapiens, UniProt Q15418) | 100%
WNK2 (Homo sapiens, UniProt Q9Y3S1) | 100%
EPHB4 (Homo sapiens, UniProt P54760) | 100%
MAP3K9 (Homo sapiens, UniProt P80192) | 100%
ITK (Homo sapiens, UniProt Q08881) | 91%
NIM1K (Homo sapiens, UniProt Q8IY84) | 100%
RET (Homo sapiens, UniProt P07949) | 100%
MST1R (Homo sapiens, UniProt Q04912) | 80%
SIK3 (Homo sapiens, UniProt Q9Y2K2) | 100%
ULK3 (Homo sapiens, UniProt Q6PHR2) | 89%
TSSK3 (Homo sapiens, UniProt Q96PN8) | 100%
Tyrosine-protein kinase ABL1, phosphorylated (ABL1, Homo sapiens, UniProt P00519, T315I) | 92%
CDK16 (Homo sapiens, UniProt Q00536) | 84%
PIM2 (Homo sapiens, UniProt Q9P1W9) | 100%
GRK3 (Homo sapiens, UniProt P35626) | 76%
IRAK4 (Homo sapiens, UniProt Q9NWZ3) | 89%
PHKG1 (Homo sapiens, UniProt Q16816) | 100%
TIE1 (Homo sapiens, UniProt P35590) | 82%
CAMKK1 (Homo sapiens, UniProt Q8N5S9) | 100%
PIK3CG (Homo sapiens, UniProt P48736) | 100%
PDPK1 (Homo sapiens, UniProt O15530) | 94%

Repeated from above (set 4):
target | remaining binding
PRKD2 (Homo sapiens, UniProt Q9BZL6) | 100%
CDK16 (Homo sapiens, UniProt Q00536) | 84%
TSSK3 (Homo sapiens, UniProt Q96PN8) | 100%
TIE1 (Homo sapiens, UniProt P35590) | 82%
MAP3K9 (Homo sapiens, UniProt P80192) | 100%
